Measurements of several laboratories.
A part holds a random share of what one study measured.

Series 1
Target: TAR DNA-binding protein 43, full length, His tag (TARDBP, Homo sapiens, UniProt Q13148, residues 1-414)
Technique: RNA Bind-n-Seq
Molecule type: RNA
Sample: in vitro
Tested at: 20 nM
Notes: 6-mer, flanks averaged, single round
Added: 150 mM LiCl
Reference: input library
Reading: higher = stronger binding
`GGCACA`: “6-mer enrichment (R)” 0.959.
`UGCUUC` — result for “6-mer enrichment (R)”: 0.928.
Under “6-mer enrichment (R)”, `UGUUAA` is recorded as 1.07.
`CCGUGA`: “6-mer enrichment (R)” 0.878.
For `GUAAGU`, “6-mer enrichment (R)” read 1.1.
`UGUCAC` — result for “6-mer enrichment (R)”: 0.907.
`CCCGCA`: “6-mer enrichment (R)” 1.
For `CUUAGA`, “6-mer enrichment (R)” read 0.846.
For `GCAAGU`, “6-mer enrichment (R)” read 0.975.
Under “6-mer enrichment (R)”, `CGAGUA` is recorded as 0.933.
`AUUAGC`: “6-mer enrichment (R)” 0.906.
`GGCGCU`: “6-mer enrichment (R)” 0.982.
For `UGUAUU`, “6-mer enrichment (R)” read 1.17.
`GCGCAA` — result for “6-mer enrichment (R)”: 0.97.
`ACUGAC` — result for “6-mer enrichment (R)”: 0.833.
For `UCUUUC`, “6-mer enrichment (R)” read 0.994.

Series 2
Target: Interferon regulatory factor 5, full length, phosphomimetic (IRF5, Homo sapiens, UniProt Q13568-2, residues 1-514, S451D/S453D/S456D/S462D)
Technique: protein-binding microarray
Molecule type: double-stranded DNA, one strand shown
Sample: in vitro
Tested at: 940 nM top
Notes: 60-bp whole probe
Added: salmon DNA 0.4 mg/ml
Reference: random background probes
Reading: higher = stronger binding
Constant ends, left off below: GCCTAGCAC … GTCTTGATTCGCTTGACGCTGCTG
`TTAGATTTCAGTCCCGATTAGTGCTAG`: “fitted relative affinity” 1.01 z-score.
Under “fitted relative affinity”, `AGACTTTTTTCAGACCTGTCGTGCTAG` is recorded as 0.654 z-score.
`TTAGGCATCGACACTGGGTTAGTGCTA` — result for “fitted relative affinity”: -0.408 z-score.
`GACGGTATCTACTATCGGGACGTGCTA`: “fitted relative affinity” 1.13 z-score.
Under “fitted relative affinity”, `TTGCCAATGCTTCTGGTCTTGTGCTAG` is recorded as -0.345 z-score.
`GACGGACTGGAACTGGGGACGTGCTAG`: “fitted relative affinity” -0.477 z-score.
Under “fitted relative affinity”, `TTAGGACTGCTTATCCTCTAGTGCTAG` is recorded as -0.273 z-score.
Under “fitted relative affinity”, `AACTGCATCCCAGGAGCTGGGTGCTAG` is recorded as -0.375 z-score.
`GACGGTAGCCTTTTCCTGACGTGCTAG` — result for “fitted relative affinity”: -0.297 z-score.
`GACGGTATCAGTCTCGGGACGTGCTAG`: “fitted relative affinity” 3.27 z-score.
`TCAGGTCTGGGTATTTTACTGTGCTAG` — result for “fitted relative affinity”: -0.5 z-score.
For `GAGGAACTGAGTCTCGAGACGTGCTAG`, “fitted relative affinity” read 0.505 z-score.
Under “fitted relative affinity”, `GACGATCTCAGTTTCAAGACGTGCTAG` is recorded as 1.13 z-score.
`TTAGATTTCAGTCTCGACTAGTGCTAG`: “fitted relative affinity” 2.42 z-score.
For `GTCGGTCTCCTTCTCCTGACGTGCTAG`, “fitted relative affinity” read 1.5 z-score.
`TTAGATATCAGTCTCGAATAGTGCTAG` — result for “fitted relative affinity”: 1.06 z-score.
Under “fitted relative affinity”, `GAAGGTTTCGGGACTGGGGACGTGCTA` is recorded as 5.84 z-score.
`TCAAGTTTCTCAACCACACTGTGCTAG`: “fitted relative affinity” 1.27 z-score.
For `ATGCCTTTCTCTTGGAGCTTGTGCTAG`, “fitted relative affinity” read 0.669 z-score.
`GACGGTTCCGGTTGCGGGACGTGCTAG` — result for “fitted relative affinity”: 2.41 z-score.
Under “fitted relative affinity”, `TTAGATATCGGGCATCGATTAGTGCTA` is recorded as -0.0281 z-score.
`GCCGGTATCCTTCTCCTGACGTGCTAG`: “fitted relative affinity” 1.04 z-score.
`TTAGGTCTCAGTTTCGGTTAGTGCTAG` — result for “fitted relative affinity”: 8.5 z-score.
`GAAGGTATCGGTATCGGGACGTGCTAG`: “fitted relative affinity” 7.52 z-score.
Under “fitted relative affinity”, `TTAGTTTTCCTTTCCCTTTAGTGCTAG` is recorded as 2.56 z-score.

Series 3
Target: RNA binding protein fox-1 homolog 2, RRM domain, GST-SBP tag (RBFOX2, Homo sapiens, UniProt O43251-10, residues 100-194)
Technique: RNA Bind-n-Seq
Molecule type: RNA
Sample: in vitro
Tested at: 365 nM
Notes: natural RNA segment, single round, ends assumed
Reference: no-protein control
Reading: higher = stronger binding
Constant ends, left off below: GGGAGUUCUACAGUCCGACGAUC … UGGAAUUCUCGGGUGCCAA
Construct (chain): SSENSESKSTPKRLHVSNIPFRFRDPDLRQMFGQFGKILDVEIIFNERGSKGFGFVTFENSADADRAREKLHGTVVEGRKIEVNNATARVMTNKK
`GGGGCGUCUUGCCCCUAUAUAUCAUCUUCCCGGAUUCCACUCCCUGUUGUGGGAAUCGCGCCCACCCCCAUCCGUGUGUUGUAGCCACUCACGGUUUGCAUCAAGAGUGU`: “RBNS enrichment (R)” 0.379.
`GAUCAUGCCAUUCUUAAGUAAAUCAACUAUUUUCAACACUGAAGAAAAAUGAAACAUUAUUUAGAAAACAAUGAGAUUACAAGUUCCAAACUCAGCCAGGAAUGUGGCUC` — result for “RBNS enrichment (R)”: 0.297.
Under “RBNS enrichment (R)”, `GAGAUGCCAGCAGCCUCUGUCGCCCUUAGUCAUAUAACCAAAAUCCAGACCUUAUCCACAACCCGGGGCUUGGAAAGGAAGGUAUUUUGGAAUCACACCCUCCGGUUAUG` is recorded as 0.588.
For `CUCCUCCACCAUCACAAUCUCACCCAAACUCCUGCUCACUCAAGCAAAAGCAGCCUCUGGCCUUCCCUCCACCGCUUUGCUCCAUCUGGCUUACCACUCUCCAGGGCCUC`, “RBNS enrichment (R)” read 1.23.
For `GGAGCCUAUUUCUAGCCACUCCUGUUGACAGUGCACCUGAAGGGCUGGGAUGCGUUUUUCUUGGUGUUGCAUGCUCACAACUCUGCUGACAUUGGGAACUUAUGAGAGAG`, “RBNS enrichment (R)” read 17.2.
`GUGUGCGCAGAACUGUCACCUCUAGGCUUCCGGGUGUUGCCUCCGAUGCACCUGCCUCCCUUCAUCCUCUCUCUGGGGCUGCGUUGCCUCGGCAAUGCCCCUUUUGGAGC`: “RBNS enrichment (R)” 0.221.
Under “RBNS enrichment (R)”, `AUUGAGCCCCUGAGGACAGGGGCAUCUCUGGGCUGAGCCUACUGUCUCCUUCCCACUGUCCUUUCUCCAGGCCCUCAGAUGGCACAUUAGGGUGGGCGUGCUGCGGGUGG` is recorded as 0.495.
For `CAAACUGAAAUGGAUUUGCACGUUGGGGAGCUGGCGGCGGCGGCUGCUGGGCCUCCGCCUUCUUUUCUACGUGAAAUCAGUGAGGUGAGACUUCCCAGACCCCGGAGGCG`, “RBNS enrichment (R)” read 0.91.
Under “RBNS enrichment (R)”, `CCUCUGCUUGUACAGAGCCCAUGGUCGGGACAGUGCCCUGGCCUUUGCCGGGGAGGAGGAUGCUCUGAGAUUCAGGGUGGGGCUGGCAACCCCUGAAGAGAACACUUCCU` is recorded as 0.287.
Under “RBNS enrichment (R)”, `CCUCCCUUCUCUUGUUUCUUUUAUUUAUAAGUUACCAUUCCUAGUUUCUUUGUACUUGAAAUUUUAAGAAACCAGAAACAAGUAAAUCUGGUUGUAUCUAGAUCUUUGCU` is recorded as 0.638.
For `UGCAACUAAUGGUUGUGCCAGCUAUUCCCUAGAGGUCCUAGACACACAGACUGCCUUAGCCCCCACACCUCUGUCCCUAGGAGAAUGAAUGGGCAGAGUGGAGCUGACAC`, “RBNS enrichment (R)” read 1.51.
Under “RBNS enrichment (R)”, `UUGGGAAACUGUCCAGCCACGUUUCCAUUACUCGGAGCUCUCGGUUACCUUCAGACAUGGUGCCGUGUUGGGAGCAACCUCAGUGGGUUUGCACUACACUCACUCCGUGC` is recorded as 0.562.

Series 4
Target: Centromere-binding protein 1, full length, His-tagged (CBF1, Saccharomyces cerevisiae, UniProt P17106, residues 1-351)
UniProt P17106, sequence (whole entry, looked up): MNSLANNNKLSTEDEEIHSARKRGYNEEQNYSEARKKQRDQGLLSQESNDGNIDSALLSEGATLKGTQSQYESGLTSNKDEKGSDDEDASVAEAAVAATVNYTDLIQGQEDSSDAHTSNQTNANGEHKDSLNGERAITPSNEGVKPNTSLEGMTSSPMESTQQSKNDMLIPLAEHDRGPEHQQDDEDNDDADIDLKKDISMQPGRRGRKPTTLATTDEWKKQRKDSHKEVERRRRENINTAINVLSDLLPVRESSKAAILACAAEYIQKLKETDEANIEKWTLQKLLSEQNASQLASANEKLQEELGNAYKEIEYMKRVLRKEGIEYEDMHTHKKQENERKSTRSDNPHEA
Technique: competition protein-binding microarray
Molecule type: double-stranded DNA, one strand shown
Sample: in vitro
Tested at: 2 µM
Notes: whole 60-bp probe, lowest competitor level
Added: Pho4 competitor, 0.05 µM
Reading: higher = stronger binding
Constant ends, left off below: … GTCTTGATTCGCTTGACGCTGCTG
The fluorescence intensity of `ATTGGTGATATTGTTGACGTGCTTTACAAACGGAAT` is reported as 83 a.u.
`CGGGGTTAAGTTTGTCACCCGACTTGCTTGCAGCAG` has a fluorescence intensity of 65.4 a.u.
With `GTCCGATATGCCCGGAACGTGCTTTCCATTGGTGCA` the fluorescence intensity was 112 a.u.
`TGCGCAACAACTTTTCACGTGTCGTTATGTCTAGAA` has a fluorescence intensity of 862 a.u.
For `AAGACGAAAGGAGTGCAGGTGATGACAACCTCAGTG`, the fluorescence intensity was 97.5 a.u.
The fluorescence intensity of `CTTAATGGACTAAAGCACGTGACTCGTAAAACCCAT` is reported as 14300 a.u.
For `ACCGCAATGGCGCTTCACGTGTTGGGTAACCACAAC`, the fluorescence intensity was 839 a.u.
`CTTCTGTAAATTTGTCACGATACTTGACGCGCCCCG` has a fluorescence intensity of 283 a.u.
`CCGATGATATGATTGCACGTCCACTGAACAGGTTAA` has a fluorescence intensity of 74 a.u.
`AAAGCGGTAATTTGCGATGTGGGTGCAGATATCTAT` gave a fluorescence intensity of 75.9 a.u.
The fluorescence intensity of `AAAAAACGAATGACTCACGTTATCAGGCTCATAGCT` is reported as 225 a.u.
`ACTAATTAAGGTTCTCACGTGGAACTTCCGTCAATG` has a fluorescence intensity of 923 a.u.
With `GGACAGATAGATCGGCACGTGTTGAGCCAGTTGTTC` the fluorescence intensity was 1860 a.u.
`ACCTATGCTAAAATTCACGTGTAGGCATTTCAAAAT` has a fluorescence intensity of 930 a.u.
For `AAATTACTAAGTTGCTAGGTGGGTGACGCCGTATGA`, the fluorescence intensity was 71 a.u.
`AAATTACTAAGTTGTTGAGTGGGTGACGCCGTATGA` gave a fluorescence intensity of 74.1 a.u.
`GTCTTGTCTCATTGCTATGTGGGTGTCCCCACTTCA` gave a fluorescence intensity of 79.9 a.u.
For `AACGAGCTCTGCTGGCACGCATTGAAGTTGGTTCAT`, the fluorescence intensity was 84.9 a.u.
`CATACCCAACCTTTTCACGTGCCATAAGATATTTGT` has a fluorescence intensity of 1550 a.u.
For `GAAATCAGAGAAGGTCCCGTGTCGGTAGGTACCTTA`, the fluorescence intensity was 177 a.u.
The fluorescence intensity of `TAAACTTTCTACGGCCACGTGTAACCTCTTTCAGAA` is reported as 876 a.u.
`GGCCAAGTTGGTTAAGGCGTGCGATTGTTAATCGCA` has a fluorescence intensity of 84.5 a.u.
For `CACTACCACTGCGCACCCGTGACGGTGCTCCAAAGT`, the fluorescence intensity was 162 a.u.
`CATACCCAACCTTGAGTGGTGGGTGAAGATATTTGT` gave a fluorescence intensity of 66.8 a.u.
`ATTAGTTCTGGTGCCATCGTGTCGGCTTTACCACAA` has a fluorescence intensity of 60.6 a.u.

For quick reference, copied from above (series 1):
For `UGUAUU`, “6-mer enrichment (R)” read 1.17.
Under “6-mer enrichment (R)”, `UGUUAA` is recorded as 1.07.
`ACUGAC` — result for “6-mer enrichment (R)”: 0.833.
For `GCAAGU`, “6-mer enrichment (R)” read 0.975.
`UGCUUC` — result for “6-mer enrichment (R)”: 0.928.
`AUUAGC`: “6-mer enrichment (R)” 0.906.
For `UCUUUC`, “6-mer enrichment (R)” read 0.994.
`UGUCAC` — result for “6-mer enrichment (R)”: 0.907.
`CCCGCA`: “6-mer enrichment (R)” 1.
Under “6-mer enrichment (R)”, `CGAGUA` is recorded as 0.933.
`GGCACA`: “6-mer enrichment (R)” 0.959.
`GGCGCU`: “6-mer enrichment (R)” 0.982.
`CCGUGA`: “6-mer enrichment (R)” 0.878.
